Literature values, collected from citations in different studies.
Each numbered part shows a few of the values that one paper quotes. Values after ≈ are worked out from the molar mass of the structure shown.

Set 1
SMILES: OCCN1CCN(CCC=C2c3ccccc3Sc3ccc(C(F)(F)F)cc32)CC1
Cell line: MCF7
Technique: microarray
Tested at: concentration not given
Relative to: DMSO
assay | log2 fold change
item: TBC1D17 mRNA | 0.98
item: SLCO4C1 mRNA | 1.31
item: SLC38A7 mRNA | 1.02
item: STX5 mRNA | 1.05

Mixed results
Compound | tested on | assay | system | setting | quantity | result
CN[C@@H](C)[C@@H](O)c1ccccc1 | human OCT1 | competitive inhibitor | MDCK-hOCT1 cell membranes | added: [3H]MPP+ | Ki | 1.71 µM
CN[C@H](CC(C)C)C(=O)N[C@H]1C(=O)N[C@@H](CC(N)=O)C(=O)N[C@H]2C(=O)N[C@H]3C(=O)N[C@H](C(=O)N[C@H](C(=O)O)c4cc(O)cc(O)c4-c4cc3ccc4O)[C@H](O)c3ccc(c(Cl)c3)Oc3cc2cc(c3O[C@@H]2O[C@H](CO)[C@@H](O)[C@H](O)[C@H]2O[C@H]2C[C@](C)(N)[C@H](O)[C@H](C)O2)Oc2ccc(cc2Cl)[C@H]1O | Mycolicibacterium smegmatis | – | mc2155 | – | MIC | 4.5 µg/mL (≈ 3.11 µM)
CCOC(=O)[C@@H]1CSCC(=O)N[C@H](CC)C(=O)N(C)[C@@H](C)C(=O)N[C@@H](CC(C)C)C(=O)N(C)[C@H](C)C(=O)N(CC(C)C)CC(=O)N[C@H](CC(C)C)C(=O)N(C)[C@H](C)C(=O)N[C@@H](CC(C)C)C(=O)N1C | MDCK | – | – | – | log permeability (Pe) | -5.04
CC(C)NC[C@H](O)c1ccc(O)c(O)c1 | human OCT1 | competitive inhibitor | MDCK-hOCT1 cell membranes | added: [3H]MPP+ | Ki | 120 µM

Some of these lines once more (mixed results):
Compound | tested on | assay | system | setting | quantity | result
CC(C)NC[C@H](O)c1ccc(O)c(O)c1 | human OCT1 | competitive inhibitor | MDCK-hOCT1 cell membranes | added: [3H]MPP+ | Ki | 120 µM
